Measurements pooled from the literature.
Each numbered part is a random draw from the data of one study; scales do not carry over between parts. Changes are numbered by the printed parent chain.

Sample 1
Target: CCND1, cyclin fold, Cln2 fusion (human)
Method: yeast growth competition, sequencing
Medium: yeast
Notes: strong parent motif
Baseline: not given
Reading: higher = stronger binding
Starting sequence: INSM1 docking peptide (human); PKAIRKLHFEDEV
| Variant | normalised enrichment score |
| --- | --- |
| H8G | 2.98 |
| D11P | 3.14 |
| D11E | 4.5 |
| A3E | 0.475 |
| R5A | 1.15 |
| A3K | 0.872 |
| I4M | 4.16 |
| A3G | 1.81 |
| E10P | 5.28 |
| L7T | 0.196 |
| A3R | 0.203 |
| R5W | 0.538 |
| L7D | -0.179 |
| E12M | 4.33 |
| K6I | 3.41 |
| K6L | 2.34 |
| E10Q | 2.89 |
| E10S | 3.58 |
| F9W | 1.39 |
| E10R | 1.67 |
| L7V | 0.264 |
| E10T | 3.5 |
| H8N | 5.61 |

Sample 2
Target: Interferon regulatory factor 3, full length, phosphomimetic (IRF3, Homo sapiens, UniProt Q14653, residues 1-427, S386D/S396D/S398D/S402D/T404D/S405D)
Method: protein-binding microarray
Molecule type: double-stranded DNA, one strand shown
Medium: in vitro
Tested at: 2540 nM top
Notes: 60-bp whole probe
With: salmon DNA 0.4 mg/ml
Baseline: random background probes
Reading: higher = stronger binding
All sequences stand within: GCCTAGCAC … GTCTTGATTCGCTTGACGCTGCTG
Construct (chain): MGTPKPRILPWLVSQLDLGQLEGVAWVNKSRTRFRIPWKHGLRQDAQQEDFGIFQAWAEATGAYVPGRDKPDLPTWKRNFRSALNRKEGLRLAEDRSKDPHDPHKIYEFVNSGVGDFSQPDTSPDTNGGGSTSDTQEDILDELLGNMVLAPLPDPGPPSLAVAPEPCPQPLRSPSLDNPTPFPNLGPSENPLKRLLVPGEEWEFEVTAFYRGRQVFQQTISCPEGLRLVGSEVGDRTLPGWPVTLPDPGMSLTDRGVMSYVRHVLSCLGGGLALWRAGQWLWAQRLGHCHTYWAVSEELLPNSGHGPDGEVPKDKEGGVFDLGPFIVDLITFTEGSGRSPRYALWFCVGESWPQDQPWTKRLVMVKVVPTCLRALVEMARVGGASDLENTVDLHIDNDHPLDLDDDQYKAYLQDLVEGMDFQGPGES
| Oligonucleotide | fitted relative affinity |
| --- | --- |
| GACGAACTGAGTCACGAGACGTGCTAG | -0.132 z-score |
| TTAGGACTGGGTTTCGGCTAGTGCTAG | 0.154 z-score |
| TAAGGTCTCGGTATCGGTTAGTGCTAG | 2.65 z-score |
| GACGGTTTCCTCTCCCTGACGTGCTAG | 3.87 z-score |
| GACGATCTCAGTCTCGAGACGTGCTAG | 0.818 z-score |
| GACGAACTGGGTTTCGAGACGTGCTAG | 0.829 z-score |
| GACTATATCAGTTTCGAGACGTGCTAG | 3.24 z-score |
| GTCGGTATCGACTTTCGGGACGTGCTA | 2.25 z-score |
| TTAGGAATGGGGTTTCGGTTAGTGCTA | 2.56 z-score |
| GACGGTTTCGGTATTGGGACGTGCTAG | 7.67 z-score |
| TTAGATATCAGTTTCGATTAGTGCTAG | 4.91 z-score |
| GACGGTGTCGGGACTGGGGACGTGCTA | 0.714 z-score |
| GAGGGTCTCCTTTTCCTGACGTGCTAG | 3.43 z-score |
| TTAGATATCAGACCGGATTAGTGCTAG | 0.171 z-score |
| GACGGTCTGCTACTGCTGACGTGCTAG | -0.446 z-score |
| TTAGGTTTGGACTATCGGTTAGTGCTA | -0.273 z-score |

Sample 3
Target: Sal-like protein 4, full length isoform B (SALL4, Homo sapiens, UniProt Q9UJQ4-2, residues 1-616)
Method: universal PBM
Molecule type: double-stranded DNA, one strand shown
Medium: in vitro
Tested at: not given
Notes: 8-mer, flanks averaged, mean of replicates
Reading: higher = stronger binding
| Oligonucleotide | E-score |
| --- | --- |
| CGGCGAAC | -0.112 |
| AAGGGCGC | -0.177 |
| CTCATGTC | 0.00099 |
| CAACACAG | -0.188 |
| CTGCCATA | -0.0132 |
| CGCTGATC | -0.189 |
| CCACCCCC | -0.202 |
| CATACTTC | 0.154 |
| AAAAATTT | 0.341 |
| TAGCTCAA | -0.00859 |
| ACTTTTTA | 0.245 |
| CTACCACC | -0.25 |
| GGAGAATA | 0.233 |
| CAAAACGG | -0.00228 |
| CATAGCTA | 0.135 |
| ACCATCCA | -0.0622 |
| AAGGAGGT | 0.00446 |
| AGACAAAC | 0.106 |
| ACCCGTCA | -0.252 |
| CAGCCTCA | -0.193 |

Sample 4
Target: Ras GTPase-activating protein-binding protein 1, RRM domain (G3BP1, Homo sapiens, UniProt Q13283)
Sequence of UniProt Q13283 (whole entry, looked up): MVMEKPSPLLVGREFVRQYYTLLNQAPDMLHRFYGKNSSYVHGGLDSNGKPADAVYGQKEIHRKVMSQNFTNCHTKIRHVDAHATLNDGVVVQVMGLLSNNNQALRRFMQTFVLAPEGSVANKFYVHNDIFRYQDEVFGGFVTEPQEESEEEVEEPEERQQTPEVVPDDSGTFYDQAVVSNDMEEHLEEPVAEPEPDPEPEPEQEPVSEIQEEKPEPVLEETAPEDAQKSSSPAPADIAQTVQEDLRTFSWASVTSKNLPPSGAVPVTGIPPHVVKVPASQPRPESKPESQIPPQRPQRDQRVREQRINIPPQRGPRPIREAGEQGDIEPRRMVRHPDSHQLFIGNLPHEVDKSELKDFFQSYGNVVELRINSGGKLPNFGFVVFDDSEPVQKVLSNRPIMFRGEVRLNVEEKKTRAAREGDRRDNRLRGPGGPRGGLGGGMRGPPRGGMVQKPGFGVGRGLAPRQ
Method: RNA Bind-n-Seq
Molecule type: RNA
Medium: in vitro
Tested at: 1 µM
Notes: whole 134-nt RNA, ends assumed
With: 150 mM KCl
Baseline: input library
Reading: higher = stronger binding
All sequences stand within: GGGAGUUCUACAGUCCGACGAUC … UGGAAUUCUCGGGUGUCAAGG
| Oligonucleotide | log2 enrichment |
| --- | --- |
| UGUACAAACACUUUCCCAUCCCCCUCAUUAACCGGCUGGAGAAGCACUAUCUGGAUAUCAACACGGUGCUGGAGAAAUGGCAGAAGAGCA | -0.111 |
| CCUCAAGUCCUGUGCUACACAUCGUAUGUACCGAAUCGGUUUUUGGUGGUGGAAAGUAUUAUGUUACGCCGUUCGGAUCUGCACUUCCAG | -0.201 |
| UCCUGUGCUACACAUCGUAUGUACCGAAUCGGAAAAAAGGGGAAAAAAGGGAAAAAAGGAAAGUAUUAUGUUACGCCGUUCGGAUCUGCA | 0.113 |
| UCCUGUGCUACACAUCGUAUGUACCGAAUCAAAUUUAAACCCCCCCAAAUUUUUUUAAAAAAGUAUUAUGUUACGCCGUUCGGAUCUGCA | -0.157 |
| AGUCCUGUGCUACACAUCGUAUGUACCGAAUCGGGUGGGUUUUUUUGGGAAAAAGGGAAAGUAUUAUGUUACGCCGUUCGGAUCUGCACU | 0.621 |
| GCAGGAAGUAAAAACAAAUGGAAAUGCUUCGGAUGGUGGCAGGGGUGGGGGUUGCUAAGGAAAGGGUGGGAUGGGAGUGGGUAAAGAGUU | 1.01 |
| AGUCCUGUGCUACACAUCGUAUGUACCGAAUCGGGGAAAAAGGGAAAAAGGAAAAAGGAAAGUAUUAUGUUACGCCGUUCGGAUCUGCAC | -0.0555 |
| UACUAUCAAACAAUCGGAAACCACGCGUCCUACUACAAAGAUGCUCUGCGGUUUUUGGGCUGUGUUGACAUCAAGGAUCUACCAGGUAAC | -0.329 |
| UAGCCAAGAGUCGAAGCUAAACCAGAAGUUCAAUCUCAGCCACCUCGUGUGCGUGAACAACGACCUAGAGAACGACCUGGUUUUCCUCCU | -0.12 |
| ACCAUGCAGGUGGGCAUCUUUGGGAAGUGGGGCAAGGGGGGGAUAGGGAGGGGGGUAACACUUUGGGAACAGGUGGUCCCAGGACGUUUC | 0.724 |
| GUCCUGUGCUACACAUCGUAUGUACCGAAUCGGGGAAAAAGGGGAAAAAGGGAAAAAGGAAAGUAUUAUGUUACGCCGUUCGGAUCUGCA | -0.0777 |
| CAAGUCCUGUGCUACACAUCGUAUGUACCGAAUCGGGUUGGGGUUGGGGUUGGGGAAAGUAUUAUGUUACGCCGUUCGGAUCUGCACUUC | 1.28 |
| GGCAGUAGCAGCAGCGCCGGGUCCCGUGCGGAGGUGCUCCUCGCAGAGUUGUUUCUCGAGCAGCGGCAGUUCUCACUACAGCGCCAGGAC | -0.546 |
| CAAGUCCUGUGCUACACAUCGUAUGUACCGAAUCGGGUUUUGGUUUUGGGUUUUGGAAAGUAUUAUGUUACGCCGUUCGGAUCUGCACUU | -0.302 |

Sample 5
Target: Histone acetyltransferase KAT6A, both winged helices, GST fusion (KAT6A, Homo sapiens, UniProt Q92794, residues 1-181)
Method: protein binding microarray
Molecule type: double-stranded DNA, one strand shown
Medium: in vitro
Tested at: not given
Notes: 8-mer, flanks averaged, mean of 2 arrays, mostly near background
Baseline: not given
Reading: higher = stronger binding
Construct (chain): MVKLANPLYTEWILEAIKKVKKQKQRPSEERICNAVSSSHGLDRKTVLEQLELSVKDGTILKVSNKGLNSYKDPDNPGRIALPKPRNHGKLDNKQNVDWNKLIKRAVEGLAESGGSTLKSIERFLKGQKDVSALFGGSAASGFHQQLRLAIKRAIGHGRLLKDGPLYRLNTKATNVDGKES
| Oligonucleotide | E-score |
| --- | --- |
| AGAGGGTC | -0.213 |
| AAATACTC | -0.118 |
| GCGAAGTA | 0.0517 |
| GCAGAATA | -0.105 |
| GGCACTGA | 0.00968 |
| AAGCTTAT | -0.00453 |
| GCCCGGGC | 0.328 |
| ACCTTTCC | -0.0286 |
| TAGAATGA | -0.131 |
| AGGCCCAG | -0.252 |
| CTCACCAC | -0.112 |
| CAAATCGA | -0.177 |
| AAATTGAC | -0.0461 |
| CCCCGGCC | 0.205 |
| CATCTCAA | -0.0876 |
| CTGCTCGA | -0.257 |
| AGATAAGC | -0.0315 |
| ACGATTAG | -0.079 |
| AGAATCGC | 0.169 |
| AAGAACGG | 0.0902 |
| AATCACAT | -0.049 |
| CACTTTTA | -0.118 |
| CGGCCATC | 0.157 |
| ATACGGTC | 0.173 |
| ACATAGTA | -0.0601 |

Sample 6
Target: RING finger protein unkempt homolog, zinc fingers 1-6, SBP tag (UNK, Homo sapiens, UniProt Q9C0B0, residues 30-357)
Sequence of UniProt Q9C0B0 (30-357, looked up): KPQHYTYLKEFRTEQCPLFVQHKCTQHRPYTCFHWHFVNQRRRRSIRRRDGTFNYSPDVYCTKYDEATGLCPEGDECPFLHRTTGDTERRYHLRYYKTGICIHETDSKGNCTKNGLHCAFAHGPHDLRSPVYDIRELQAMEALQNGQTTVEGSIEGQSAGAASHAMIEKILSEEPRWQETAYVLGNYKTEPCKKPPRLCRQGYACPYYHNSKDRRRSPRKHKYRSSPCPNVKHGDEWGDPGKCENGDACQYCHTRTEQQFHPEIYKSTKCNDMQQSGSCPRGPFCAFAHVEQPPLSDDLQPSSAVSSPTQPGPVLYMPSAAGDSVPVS
Method: RNA Bind-n-Seq
Molecule type: RNA
Medium: in vitro
Tested at: 100 nM
Notes: RNA with constant flanks, vertebrate orthologous sites, ends assumed
Baseline: input RNA pool
Reading: higher = stronger binding
All sequences stand within: GGGAGUUCUACAGUCCGACGAUC … CAACAGAGGAUUGAGCAUCA
| Oligonucleotide | bound/input enrichment |
| --- | --- |
| UUUUAUUGAUCAGGUCUGUAAAUGUGUACUAAAAAAAUCAGAGUUUAUUUAUAAACAGAAUAGUUUAUUUAAAAAGGUCUUUCUUCAUUGAUAUUGUGGUAUGCAUUAAUUCCAUUUGUU | 0.209 ratio |
| UGGCGGGCCCGGGCCCCCGCCGCUCAGAGCAGCCCACUGGCCACGUCAGCCAGGCCAUUUGGGCUGUUUAUUUUACCAGUGCCCUUACUACCCUGUGUACAUGCCUGAGAUCUGGAAAGA | 0.694 ratio |
| AGCAAAUCCAAUCACUGUGAUAUUUAAAAUAUGCACAGUCCUAAUCUUUCUCAAUGAUCCUAGUAUUUUUCUAGCUGUAUCUUUGUAUCUCAUACUGUUAUUUAUCAGUUUUGUUCCCCU | 0.615 ratio |
| GGUUGAUGUUUUGAAGAACCACUUAGUAAAAGAAGGUCGAGUAGAUGAAGAAAUUGCACUUAGAAUUAUCAAUGAGGGUGCUGCCAUCCUUCGGAGAGAGAAAACCAUGAUAGAAGUAGA | 1.17 ratio |
| AUCCCUCAGUGACAGUAUGCCAUCUGUAGCGGAUUCCCACUCGAGUCACUUUUCCGAGUUCAGCUGCUCAGACUUAGAGAGCAUGAGAACAUCCUGUAGCCAUGGUUCCAGUGACUGUCA | 0.642 ratio |
| GAUGUAUUUAUACUGGCCAAACAUUUUUGACUUGUAUUUCUUUGUCCUUUUUUGGUAGUCCUCGUUGUUACUCGCACCAUUUUUAUGUCUCCUUCACUGAAGGGCUAGAGUUUUAACUUU | 0.456 ratio |
| CUCCCCGUUACCCCUAAAGUAGAACUUUUUAAAAUUAUGUCACCACCACUUCUAAAAAUUUAGCAAUAUUAGAAGAAAAUGCUCAUGAAGAAAGAAAUUUUGCUCAUUGUUUUGCAAACC | 0.951 ratio |
| UUGACUUUGGACGUCCGCCCUUCCUCGGCGCGAAGGCUGUUCAGUCCCGGGCUUUGCAAGUUUGUCGUUCUCUCCGGGACUCGAGGCUUCUGCCGCAGCCAUGAUCCGCCAGAUCAUCGG | 0.126 ratio |
| CAGUAAGGGGAUGCUGGAUGAGAUGAGGAGCAAGUUAAGGCGGCAGAGGUUGGUAAAAUUGCUGCCAUUGCACAAUGGCUAAACUGCAGUCACUUUUCUGUGUAAAACCAGCUGUGUUUA | 0.532 ratio |
| GCAAUGCAAAAGCAUCCCUUCUCCCAACCCCCUUUUCACUAGGAGAUACAAACGUUACUGUAGAAGAGCAAUUAAACUCAAUAAAUUUAUCUUUUCAGGAUGAUCCAGACUCCAGUACCA | 1.03 ratio |
| CCUGCCCGUUUACCCCUAAAAUAGGACUCUCUUAGAAUUGUGUUGCCACUUGUAAAAUCUUAGCAAUAUUACAAUAUAACACACCAAUGAAACAAAAUUUACUCAUUAUUUUGCAAACCA | 1.94 ratio |
